Measured values collected from several papers.
A part holds a random share of what one study measured. Positions count from the first letter of the parent shown.

Sample 1 — method: DHFR PCA, deep sequencing; medium: yeast; added: (+)-ABA 0.11 µM; baseline: wild-type fitted maximum; reading: higher = stronger binding; quantity: relative binding score
Target: ABI1, truncated, D143A, DHFR fusion (Arabidopsis thaliana)
Setting: methotrexate growth selection, single substitutions
Parent: PYL1, truncated, DHFR fusion (Arabidopsis thaliana); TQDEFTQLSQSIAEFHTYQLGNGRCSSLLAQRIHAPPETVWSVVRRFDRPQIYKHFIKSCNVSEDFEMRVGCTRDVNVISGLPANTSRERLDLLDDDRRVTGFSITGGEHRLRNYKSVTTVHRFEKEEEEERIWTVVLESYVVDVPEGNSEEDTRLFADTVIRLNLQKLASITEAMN
E151K: 41.5%
F124G: 13.1%
Q7D: 29%
I79Q: 9.47%
R163A: 22.9%
V44D: -0.824%
V145Q: 0.00162%
Q19G: 10.6%
S117T: -1.2%
R111P: 19%
S42C: 1.65%
I52Q: 16.7%
D96F: -10.1%
E64W: 3.77%
T1P: 34.8%
L94N: -7.64%

Sample 2 — cell line: yeast with cyclin B3-Cln2 chimera; read-out: cell growth; action: binder; method: competitive growth deep sequencing; form: peptide; concentration: concentration not given; setting: peptide tiling library; reading: direction not given; quantity: growth enrichment score
DGCSPIKNWSPMRL: 0.522
TSPGPVLLHPSPSTTQ: 0.623
FQDSGYNELKSCSFDN: 0.164
SGYLTDENEVGFRG: 0.784
VLPGGVPSPGASLTSM: -0.0592
VLVRTSACRSLFGPVD: 0.246
QNPCGSKACRRLFGPV: -0.328
RNRGPKLNAMLRLGVL: -2.5
GAEELEDLVHFSVSEL: 1.16
NFETPEAETPIRSPFK: 0.121
TRRRLFVENDSP: 0.712
VRDLSYRLVFLACCVA: 0.0894
PQWPCGKHKRVLIFAS: -0.507

Single results of other studies
NUP43 (Homo sapiens, UniProt Q8NFH3)
interaction screen (SEH1L (Homo sapiens, UniProt Q96EE3); cross-linking MS; hits only): cross-linked

PhoQ, residues 284 288 289 292 302 303 TVTVVA
fold induction (PhoP, residues 12 14 15 18 19 YHFSH (Escherichia coli, UniProt P23836); Sort-seq, refers to: YFP reporter; E. coli; PhoQ-PhoP variant library, added: 10 µM Mg2+; baseline: high Mg2+ state, higher = stronger signaling): 4.65

VPS11 (Homo sapiens, UniProt Q9H270)
interaction screen (VPS18 (Homo sapiens, UniProt Q9P253); cross-linking MS; hits only): cross-linked

CCT8 (Homo sapiens, UniProt P50990)
cross-linked residues (CCT7 (Homo sapiens, UniProt Q99832); cross-linking MS; cell fractions; added: DHSO): E61 to D70

ARHGEF11 (Homo sapiens, UniProt O15085)
cross-linked residues (TRDN (Homo sapiens, UniProt Q13061); cross-linking MS; cell fractions; added: DMTMM): E529 to K336

For quick reference, copied from above (sample 1):
S117T: -1.2%
L94N: -7.64%
I52Q: 16.7%
R163A: 22.9%
D96F: -10.1%
